Published values collected from several papers.
Each numbered part is a random draw from the data of one study; scales do not carry over between parts.
Chain of UniProt P49760 (whole entry, looked up): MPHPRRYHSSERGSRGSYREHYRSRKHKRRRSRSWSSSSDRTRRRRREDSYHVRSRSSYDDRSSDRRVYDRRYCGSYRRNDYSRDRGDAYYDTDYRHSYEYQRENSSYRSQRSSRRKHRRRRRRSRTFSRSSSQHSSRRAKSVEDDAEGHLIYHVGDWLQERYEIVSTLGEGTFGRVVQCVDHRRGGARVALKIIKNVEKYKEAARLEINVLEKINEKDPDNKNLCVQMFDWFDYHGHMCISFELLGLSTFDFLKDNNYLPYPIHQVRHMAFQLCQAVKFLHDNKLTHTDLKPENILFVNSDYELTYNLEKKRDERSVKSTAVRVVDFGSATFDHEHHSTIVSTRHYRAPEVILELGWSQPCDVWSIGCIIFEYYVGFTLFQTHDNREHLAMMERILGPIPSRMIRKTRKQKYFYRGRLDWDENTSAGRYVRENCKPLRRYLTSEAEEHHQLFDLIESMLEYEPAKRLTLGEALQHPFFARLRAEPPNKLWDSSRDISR
Chain of UniProt P07332 (whole entry, looked up): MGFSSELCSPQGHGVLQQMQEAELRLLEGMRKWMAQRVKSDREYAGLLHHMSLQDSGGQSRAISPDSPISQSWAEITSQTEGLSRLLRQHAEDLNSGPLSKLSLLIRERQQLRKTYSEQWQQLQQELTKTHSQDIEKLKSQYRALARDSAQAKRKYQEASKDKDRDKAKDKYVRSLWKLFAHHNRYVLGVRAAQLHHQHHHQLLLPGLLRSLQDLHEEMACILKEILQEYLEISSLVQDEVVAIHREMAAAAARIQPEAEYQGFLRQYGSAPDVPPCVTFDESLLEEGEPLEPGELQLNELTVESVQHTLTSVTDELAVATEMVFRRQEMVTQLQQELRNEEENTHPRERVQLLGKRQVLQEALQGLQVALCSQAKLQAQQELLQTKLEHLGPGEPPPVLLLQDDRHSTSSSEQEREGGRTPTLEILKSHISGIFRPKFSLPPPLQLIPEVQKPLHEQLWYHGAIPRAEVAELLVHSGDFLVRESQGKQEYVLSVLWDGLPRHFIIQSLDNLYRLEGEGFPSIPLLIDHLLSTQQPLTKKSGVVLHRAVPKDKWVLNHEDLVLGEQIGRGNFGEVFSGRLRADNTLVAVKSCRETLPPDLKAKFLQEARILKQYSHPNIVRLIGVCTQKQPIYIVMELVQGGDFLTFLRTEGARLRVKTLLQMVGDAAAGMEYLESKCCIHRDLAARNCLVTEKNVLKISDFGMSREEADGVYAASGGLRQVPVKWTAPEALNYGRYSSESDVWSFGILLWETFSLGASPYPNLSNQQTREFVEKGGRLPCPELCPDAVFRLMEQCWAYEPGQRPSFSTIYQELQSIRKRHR
Chain of UniProt Q9NYL2 (whole entry, looked up): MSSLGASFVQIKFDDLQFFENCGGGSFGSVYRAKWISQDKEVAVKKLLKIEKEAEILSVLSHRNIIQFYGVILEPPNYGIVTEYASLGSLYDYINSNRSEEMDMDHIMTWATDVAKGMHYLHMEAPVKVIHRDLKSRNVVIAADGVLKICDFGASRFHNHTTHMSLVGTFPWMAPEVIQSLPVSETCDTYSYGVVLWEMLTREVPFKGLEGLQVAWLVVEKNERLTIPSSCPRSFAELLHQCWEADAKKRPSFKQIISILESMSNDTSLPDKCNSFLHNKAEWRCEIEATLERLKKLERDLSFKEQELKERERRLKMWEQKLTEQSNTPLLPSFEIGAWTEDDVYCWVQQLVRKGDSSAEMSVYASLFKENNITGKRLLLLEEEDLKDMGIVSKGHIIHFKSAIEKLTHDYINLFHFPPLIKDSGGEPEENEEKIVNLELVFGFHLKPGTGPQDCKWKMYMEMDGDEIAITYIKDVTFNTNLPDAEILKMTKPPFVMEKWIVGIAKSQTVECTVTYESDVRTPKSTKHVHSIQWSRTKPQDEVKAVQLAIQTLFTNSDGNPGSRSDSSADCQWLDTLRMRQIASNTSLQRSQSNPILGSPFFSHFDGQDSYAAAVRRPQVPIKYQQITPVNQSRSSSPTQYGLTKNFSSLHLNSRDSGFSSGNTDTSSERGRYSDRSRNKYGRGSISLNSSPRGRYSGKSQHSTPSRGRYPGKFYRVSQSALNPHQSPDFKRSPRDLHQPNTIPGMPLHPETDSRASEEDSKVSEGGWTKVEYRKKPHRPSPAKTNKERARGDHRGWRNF
Chain of UniProt Q8N5S9 (whole entry, looked up): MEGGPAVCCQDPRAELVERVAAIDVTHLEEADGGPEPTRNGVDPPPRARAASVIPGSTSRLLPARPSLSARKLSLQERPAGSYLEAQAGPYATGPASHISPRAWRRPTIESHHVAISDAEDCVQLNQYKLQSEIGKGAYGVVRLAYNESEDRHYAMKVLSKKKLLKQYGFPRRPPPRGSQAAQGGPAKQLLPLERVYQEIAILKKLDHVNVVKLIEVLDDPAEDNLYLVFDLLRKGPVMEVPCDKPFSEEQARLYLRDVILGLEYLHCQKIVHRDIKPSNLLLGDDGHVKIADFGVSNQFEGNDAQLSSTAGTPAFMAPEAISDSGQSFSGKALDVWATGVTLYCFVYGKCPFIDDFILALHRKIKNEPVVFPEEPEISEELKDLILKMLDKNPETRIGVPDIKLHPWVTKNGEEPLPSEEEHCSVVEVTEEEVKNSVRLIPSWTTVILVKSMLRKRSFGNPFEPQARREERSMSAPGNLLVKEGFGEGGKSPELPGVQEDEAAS
Chain of UniProt P49674 (whole entry, looked up): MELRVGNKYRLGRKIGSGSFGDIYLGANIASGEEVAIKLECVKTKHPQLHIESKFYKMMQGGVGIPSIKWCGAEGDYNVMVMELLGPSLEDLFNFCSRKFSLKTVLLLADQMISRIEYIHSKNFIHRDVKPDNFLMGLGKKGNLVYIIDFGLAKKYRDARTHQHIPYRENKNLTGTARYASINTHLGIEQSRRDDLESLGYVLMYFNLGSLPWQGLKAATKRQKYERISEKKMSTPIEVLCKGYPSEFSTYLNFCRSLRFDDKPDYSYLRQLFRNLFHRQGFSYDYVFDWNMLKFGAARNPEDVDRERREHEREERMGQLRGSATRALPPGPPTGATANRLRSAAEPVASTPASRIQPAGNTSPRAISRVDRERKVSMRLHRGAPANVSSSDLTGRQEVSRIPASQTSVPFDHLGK
Chain of UniProt O94768 (whole entry, looked up): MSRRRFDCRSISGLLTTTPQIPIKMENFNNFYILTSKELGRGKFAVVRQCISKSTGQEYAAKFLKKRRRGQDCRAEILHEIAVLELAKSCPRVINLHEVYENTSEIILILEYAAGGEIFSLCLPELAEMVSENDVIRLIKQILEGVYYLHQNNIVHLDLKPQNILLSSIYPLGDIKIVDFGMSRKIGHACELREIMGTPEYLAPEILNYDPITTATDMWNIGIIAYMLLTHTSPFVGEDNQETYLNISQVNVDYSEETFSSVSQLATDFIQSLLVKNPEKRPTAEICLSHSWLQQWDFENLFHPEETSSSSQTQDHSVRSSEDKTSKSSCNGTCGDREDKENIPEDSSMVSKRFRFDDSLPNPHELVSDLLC
Chain of UniProt Q8TDR2 (whole entry, looked up): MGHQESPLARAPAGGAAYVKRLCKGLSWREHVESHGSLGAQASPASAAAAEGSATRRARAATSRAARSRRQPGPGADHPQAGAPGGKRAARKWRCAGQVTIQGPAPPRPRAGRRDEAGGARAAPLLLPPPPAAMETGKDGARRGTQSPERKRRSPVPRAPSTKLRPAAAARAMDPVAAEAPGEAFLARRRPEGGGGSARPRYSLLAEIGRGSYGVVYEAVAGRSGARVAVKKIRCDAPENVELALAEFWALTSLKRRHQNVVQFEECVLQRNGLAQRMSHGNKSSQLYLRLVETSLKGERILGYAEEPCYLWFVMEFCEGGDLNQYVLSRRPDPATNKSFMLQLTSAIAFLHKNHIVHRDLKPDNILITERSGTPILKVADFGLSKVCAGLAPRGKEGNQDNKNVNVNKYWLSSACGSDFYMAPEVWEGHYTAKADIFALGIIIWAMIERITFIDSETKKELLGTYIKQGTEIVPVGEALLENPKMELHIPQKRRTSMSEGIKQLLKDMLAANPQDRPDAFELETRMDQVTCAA
Chain of UniProt Q14680 (whole entry, looked up): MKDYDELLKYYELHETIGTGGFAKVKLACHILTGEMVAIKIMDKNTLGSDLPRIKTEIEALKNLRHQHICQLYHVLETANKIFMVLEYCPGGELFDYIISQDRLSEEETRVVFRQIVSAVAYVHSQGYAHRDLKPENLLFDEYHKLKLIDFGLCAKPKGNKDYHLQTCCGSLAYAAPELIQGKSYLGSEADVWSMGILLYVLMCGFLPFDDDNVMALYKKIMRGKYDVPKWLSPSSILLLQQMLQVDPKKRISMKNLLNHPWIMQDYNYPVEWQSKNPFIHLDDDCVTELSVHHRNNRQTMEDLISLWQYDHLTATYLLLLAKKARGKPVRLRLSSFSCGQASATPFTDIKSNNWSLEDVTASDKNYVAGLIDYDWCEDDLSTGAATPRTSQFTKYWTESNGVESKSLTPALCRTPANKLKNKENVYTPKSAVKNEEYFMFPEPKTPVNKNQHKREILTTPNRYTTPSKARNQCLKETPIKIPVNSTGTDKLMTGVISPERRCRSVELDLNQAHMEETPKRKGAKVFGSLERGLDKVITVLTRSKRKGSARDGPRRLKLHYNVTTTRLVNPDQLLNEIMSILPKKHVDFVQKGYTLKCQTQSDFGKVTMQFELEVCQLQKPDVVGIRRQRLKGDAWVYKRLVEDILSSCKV
Chain of UniProt Q9HBY8 (whole entry, looked up): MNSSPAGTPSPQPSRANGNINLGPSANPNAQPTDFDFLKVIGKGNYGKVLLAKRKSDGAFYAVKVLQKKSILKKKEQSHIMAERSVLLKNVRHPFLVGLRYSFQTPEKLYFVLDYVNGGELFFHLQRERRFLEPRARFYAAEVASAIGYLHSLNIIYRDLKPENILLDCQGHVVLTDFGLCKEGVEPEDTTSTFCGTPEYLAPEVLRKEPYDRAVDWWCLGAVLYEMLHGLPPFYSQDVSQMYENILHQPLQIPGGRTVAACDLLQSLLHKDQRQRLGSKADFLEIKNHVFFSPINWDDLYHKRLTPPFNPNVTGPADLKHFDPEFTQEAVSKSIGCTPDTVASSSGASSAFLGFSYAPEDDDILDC

Set 1 — effect on: binding; tested at: 1 µM
Compound: CN1CCN(C(=O)c2ccc(NC(=O)Nc3ccc(N(C)c4ccnc(Nc5ccc(CS(C)(=O)=O)cc5)n4)cc3)cc2)CC1
| target | technique | remaining binding [%] |
| --- | --- | --- |
| Serine/threonine-protein kinase 17B (STK17B, Homo sapiens, UniProt O94768) |  | 100 |
| NT-3 growth factor receptor (NTRK3, Homo sapiens, UniProt Q16288) | competition with immobilised ligand | 2 |
| Mitogen-activated protein kinase kinase kinase 10 (MAP3K10, Homo sapiens, UniProt Q02779) |  | 82 |
| Serine/threonine-protein kinase TAO1 (TAOK1, Homo sapiens, UniProt Q7L7X3) | competition with immobilised ligand | 71 |
| Serine/threonine-protein kinase 35 (STK35, Homo sapiens, UniProt Q8TDR2) | competition with immobilised ligand | 71 |
| Dual specificity protein kinase CLK2 (CLK2, Homo sapiens, UniProt P49760) |  | 54 |
| Serine/threonine-protein kinase TNNI3K (TNNI3K, Homo sapiens, UniProt Q59H18) | competition with immobilised ligand | 92 |
| Mitogen-activated protein kinase 9 (MAPK9, Homo sapiens, UniProt P45984) | competition with immobilised ligand | 19 |
| Mast/stem cell growth factor receptor Kit (KIT, Homo sapiens, UniProt P10721, A829P) |  | 0 |

Set 2 — action: inhibitor; tested at: 10 µM; baseline: control
Target: Diamine acetyltransferase 1 (Homo sapiens, UniProt P21673)
Construct (P21673 1-171): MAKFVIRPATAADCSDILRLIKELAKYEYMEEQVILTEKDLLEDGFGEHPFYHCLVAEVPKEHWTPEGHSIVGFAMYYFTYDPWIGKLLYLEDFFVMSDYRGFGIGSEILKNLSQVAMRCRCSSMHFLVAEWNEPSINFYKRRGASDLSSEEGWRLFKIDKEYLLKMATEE
| SMILES | remaining activity |
| --- | --- |
| CCCCCCCCCCCCC(=O)O | 99.9% |
| CSSSC | 101% |
| OC[C@H]1O[C@@](CO)(O[C@H]2O[C@H](CO[C@@H]3O[C@H](CO)[C@@H](O)[C@H](O)[C@H]3O)[C@@H](O)[C@H](O)[C@H]2O)[C@@H](O)[C@@H]1O | 93.5% |
| CCCCCCCCCCCCCCC(=O)O | 85.9% |
| COc1ccc(C(=O)O)cc1 | 109% |
| O=c1ccc2ccc(O[C@@H]3O[C@H](CO)[C@@H](O)[C@H](O)[C@H]3O)cc2o1 | 88.6% |
| C[C@@H]1O[C@@H](O[C@H]2[C@H](Oc3cc(O)c4c(=O)cc(-c5ccc(O)c(O)c5)oc4c3)O[C@H](CO)[C@@H](O)[C@@H]2O)[C@H](O)[C@H](O)[C@H]1O | 99.5% |
| O=c1cc(-c2ccc(O)cc2)oc2cc(O)cc(O)c12 | 88.5% |

Set 3 — effect on: enzyme activity; action: inhibitor; tested at: 0.5 µM; baseline: control
SMILES: C[S+]([O-])c1ccc(-c2nc(-c3ccncc3)c(-c3ccc(F)cc3)[nH]2)cc1 (stereo not drawn)
| target | remaining activity |
| --- | --- |
| Serine/threonine-protein kinase PAK 6 (PAK6, Homo sapiens, UniProt Q9NQU5) | 76.7% |
| Receptor tyrosine-protein kinase erbB-2 (ERBB2, Homo sapiens, UniProt P04626) | 94.6% |
| Calcium/calmodulin-dependent protein kinase kinase 1 (CAMKK1, Homo sapiens, UniProt Q8N5S9) | 125% |
| SRSF protein kinase 1 (SRPK1, Homo sapiens, UniProt Q96SB4) | 99.5% |
| Dual specificity protein kinase CLK2 (CLK2, Homo sapiens, UniProt P49760) | 108% |
| Calcium/calmodulin-dependent protein kinase type 1 (CAMK1, Homo sapiens, UniProt Q14012) | 106% |
| Casein kinase I isoform delta (CSNK1D, Homo sapiens, UniProt P48730) | 13.9% |
| Tyrosine-protein kinase receptor TYRO3 (TYRO3, Homo sapiens, UniProt Q06418) | 97% |
| Serine/threonine-protein kinase PAK 1 (PAK1, Homo sapiens, UniProt Q13153) | 99.2% |
| Dual specificity tyrosine-phosphorylation-regulated kinase 1A (DYRK1A, Homo sapiens, UniProt Q13627) | 95.6% |
| Casein kinase I isoform epsilon (CSNK1E, Homo sapiens, UniProt P49674) | 31% |
| Maternal embryonic leucine zipper kinase (MELK, Homo sapiens, UniProt Q14680) | 102% |
| Protein kinase C theta type (PRKCQ, Homo sapiens, UniProt Q04759) | 111% |
| Serine/threonine-protein kinase Sgk2 (SGK2, Homo sapiens, UniProt Q9HBY8) | 106% |
| Ephrin type-A receptor 2 (EPHA2, Homo sapiens, UniProt P29317) | 94.8% |
| Mitogen-activated protein kinase kinase kinase 20 (MAP3K20, Homo sapiens, UniProt Q9NYL2) | 100% |
| Tyrosine-protein kinase Fes/Fps (FES, Homo sapiens, UniProt P07332) | 97.3% |
| Ribosomal protein S6 kinase alpha-3 (RPS6KA3, Homo sapiens, UniProt P51812) | 95.7% |
| Activin receptor type-1-like (ACVRL1, Homo sapiens, UniProt P37023) | 97.7% |
| Muscle, skeletal receptor tyrosine-protein kinase (MUSK, Homo sapiens, UniProt O15146) | 90.3% |

Set 4 — host: human; medium: microsomes or S9; tested at: 2 µM; time: 0.5 h
| Structure (SMILES) | remaining compound |
| --- | --- |
| NC(=O)c1cccc2c1nc1scc(CN3CCCC3)n12 | 53.6% |
| COc1cc(Nc2ncc(-c3cnn(C)c3)c(Nc3ccc4c(c3)CNCC4)n2)cc(OC)c1 | 82.8% |
| c1ccc2c(c1)ccc1nnc(-c3c[nH]c4ccccc34)n12 | 67.7% |
| Cc1ccc(-c2cn3c4c(sc3n2)C(=O)C(C)(C)CC4)cc1 | 7.77% |
| Cc1cc(C)[nH]/c(=N\N=C\C2=C(O)CC(C)CC2=O)n1 (stereo not drawn) | 80.7% |
| CCC(C)OC(=O)c1c(NC(=O)C2CCN(S(C)(=O)=O)CC2)sc2c1CCCC2 (stereo not drawn) | 33.2% |
| Cc1ccc(C(=O)COC(=O)c2ccc(Cn3ccccc3=O)o2)s1 | 37.8% |
| COc1ccccc1CCN[C@H]1CS(=O)(=O)C[C@@H]1S(=O)(=O)c1ccc(Cl)cc1 | 1.34% |

Repeated from above (set 2):
| SMILES | remaining activity |
| --- | --- |
| CSSSC | 101% |
| OC[C@H]1O[C@@](CO)(O[C@H]2O[C@H](CO[C@@H]3O[C@H](CO)[C@@H](O)[C@H](O)[C@H]3O)[C@@H](O)[C@H](O)[C@H]2O)[C@@H](O)[C@@H]1O | 93.5% |
| CCCCCCCCCCCCCCC(=O)O | 85.9% |
| COc1ccc(C(=O)O)cc1 | 109% |
| O=c1ccc2ccc(O[C@@H]3O[C@H](CO)[C@@H](O)[C@H](O)[C@H]3O)cc2o1 | 88.6% |
